Measured values gathered from unrelated publications.
Parts stem from different laboratories: compare values within a part only. Positions count from the first letter of the parent shown.
Sequence of UniProt O14936 (whole entry, looked up): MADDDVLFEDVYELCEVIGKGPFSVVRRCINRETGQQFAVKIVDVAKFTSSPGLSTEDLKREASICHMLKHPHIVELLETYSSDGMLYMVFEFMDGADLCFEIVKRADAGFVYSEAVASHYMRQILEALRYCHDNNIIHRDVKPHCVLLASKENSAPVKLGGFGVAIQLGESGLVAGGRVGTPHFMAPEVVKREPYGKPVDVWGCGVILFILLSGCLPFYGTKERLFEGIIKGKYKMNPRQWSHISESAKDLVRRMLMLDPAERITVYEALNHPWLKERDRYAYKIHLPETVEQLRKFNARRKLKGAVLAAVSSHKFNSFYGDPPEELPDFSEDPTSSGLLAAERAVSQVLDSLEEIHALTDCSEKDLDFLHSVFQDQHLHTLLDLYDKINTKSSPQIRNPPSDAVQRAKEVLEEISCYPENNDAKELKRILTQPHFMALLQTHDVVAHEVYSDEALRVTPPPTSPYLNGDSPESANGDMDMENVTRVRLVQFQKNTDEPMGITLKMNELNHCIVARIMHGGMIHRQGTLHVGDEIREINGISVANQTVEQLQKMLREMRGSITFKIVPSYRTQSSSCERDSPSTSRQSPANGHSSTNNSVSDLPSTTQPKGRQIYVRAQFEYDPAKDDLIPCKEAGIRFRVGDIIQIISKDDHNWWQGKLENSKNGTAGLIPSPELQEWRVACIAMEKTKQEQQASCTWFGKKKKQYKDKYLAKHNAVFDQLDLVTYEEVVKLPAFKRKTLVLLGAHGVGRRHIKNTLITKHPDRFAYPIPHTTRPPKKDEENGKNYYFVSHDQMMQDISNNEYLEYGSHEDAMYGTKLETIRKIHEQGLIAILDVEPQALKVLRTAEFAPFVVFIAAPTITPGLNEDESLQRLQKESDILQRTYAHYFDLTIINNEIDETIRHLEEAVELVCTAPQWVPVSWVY
Sequence of UniProt Q9Y616 (whole entry, looked up): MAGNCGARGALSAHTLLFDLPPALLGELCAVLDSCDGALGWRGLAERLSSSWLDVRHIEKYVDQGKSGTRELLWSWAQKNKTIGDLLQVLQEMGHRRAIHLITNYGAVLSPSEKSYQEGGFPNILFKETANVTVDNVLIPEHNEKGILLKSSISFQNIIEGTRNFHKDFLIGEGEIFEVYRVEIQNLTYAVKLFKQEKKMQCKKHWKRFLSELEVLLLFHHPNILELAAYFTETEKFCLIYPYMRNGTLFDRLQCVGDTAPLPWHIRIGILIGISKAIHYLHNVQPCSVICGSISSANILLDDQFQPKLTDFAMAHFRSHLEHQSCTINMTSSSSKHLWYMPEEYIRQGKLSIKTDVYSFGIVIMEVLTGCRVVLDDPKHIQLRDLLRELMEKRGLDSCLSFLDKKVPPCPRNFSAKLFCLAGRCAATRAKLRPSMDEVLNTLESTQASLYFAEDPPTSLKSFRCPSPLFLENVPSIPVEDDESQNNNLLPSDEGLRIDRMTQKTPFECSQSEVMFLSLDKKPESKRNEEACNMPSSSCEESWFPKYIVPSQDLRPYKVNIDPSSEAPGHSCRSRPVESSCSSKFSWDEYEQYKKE
Sequence of UniProt Q9UQ88 (whole entry, looked up): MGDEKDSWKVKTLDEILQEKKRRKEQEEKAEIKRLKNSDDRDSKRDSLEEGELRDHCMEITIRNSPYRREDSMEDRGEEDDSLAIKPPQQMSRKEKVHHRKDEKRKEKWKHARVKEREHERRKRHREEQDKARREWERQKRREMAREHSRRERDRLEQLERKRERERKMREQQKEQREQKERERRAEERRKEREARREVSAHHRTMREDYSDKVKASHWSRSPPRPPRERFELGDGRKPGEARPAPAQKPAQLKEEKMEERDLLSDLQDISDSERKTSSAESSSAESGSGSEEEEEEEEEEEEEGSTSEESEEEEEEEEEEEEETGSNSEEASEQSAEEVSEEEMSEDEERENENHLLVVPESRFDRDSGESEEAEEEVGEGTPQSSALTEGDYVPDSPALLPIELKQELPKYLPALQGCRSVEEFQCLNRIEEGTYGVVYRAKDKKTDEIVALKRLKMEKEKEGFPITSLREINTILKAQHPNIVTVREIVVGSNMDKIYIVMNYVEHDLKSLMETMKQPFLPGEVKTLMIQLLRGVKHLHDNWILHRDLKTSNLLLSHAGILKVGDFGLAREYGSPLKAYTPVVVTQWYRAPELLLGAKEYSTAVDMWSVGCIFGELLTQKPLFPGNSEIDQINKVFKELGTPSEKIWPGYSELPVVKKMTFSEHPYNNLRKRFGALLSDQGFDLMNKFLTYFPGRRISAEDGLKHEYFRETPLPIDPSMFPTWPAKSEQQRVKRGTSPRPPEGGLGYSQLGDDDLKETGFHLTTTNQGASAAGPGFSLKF
Sequence of UniProt O95747 (whole entry, looked up): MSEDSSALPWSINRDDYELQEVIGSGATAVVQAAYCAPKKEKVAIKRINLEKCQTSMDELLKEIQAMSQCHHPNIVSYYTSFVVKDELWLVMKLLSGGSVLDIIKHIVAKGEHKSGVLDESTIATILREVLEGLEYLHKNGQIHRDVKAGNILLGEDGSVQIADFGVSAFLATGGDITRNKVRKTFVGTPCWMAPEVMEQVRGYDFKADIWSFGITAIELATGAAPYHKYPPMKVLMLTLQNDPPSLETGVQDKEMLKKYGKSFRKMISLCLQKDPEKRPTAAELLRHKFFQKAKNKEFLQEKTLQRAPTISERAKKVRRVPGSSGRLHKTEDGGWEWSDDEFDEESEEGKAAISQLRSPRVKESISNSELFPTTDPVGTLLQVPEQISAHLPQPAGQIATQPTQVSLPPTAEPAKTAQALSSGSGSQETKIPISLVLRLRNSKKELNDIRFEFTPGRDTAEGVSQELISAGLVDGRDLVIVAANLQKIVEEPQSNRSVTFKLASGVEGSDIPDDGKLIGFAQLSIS
Sequence of UniProt P10721 (whole entry, unmodified, looked up): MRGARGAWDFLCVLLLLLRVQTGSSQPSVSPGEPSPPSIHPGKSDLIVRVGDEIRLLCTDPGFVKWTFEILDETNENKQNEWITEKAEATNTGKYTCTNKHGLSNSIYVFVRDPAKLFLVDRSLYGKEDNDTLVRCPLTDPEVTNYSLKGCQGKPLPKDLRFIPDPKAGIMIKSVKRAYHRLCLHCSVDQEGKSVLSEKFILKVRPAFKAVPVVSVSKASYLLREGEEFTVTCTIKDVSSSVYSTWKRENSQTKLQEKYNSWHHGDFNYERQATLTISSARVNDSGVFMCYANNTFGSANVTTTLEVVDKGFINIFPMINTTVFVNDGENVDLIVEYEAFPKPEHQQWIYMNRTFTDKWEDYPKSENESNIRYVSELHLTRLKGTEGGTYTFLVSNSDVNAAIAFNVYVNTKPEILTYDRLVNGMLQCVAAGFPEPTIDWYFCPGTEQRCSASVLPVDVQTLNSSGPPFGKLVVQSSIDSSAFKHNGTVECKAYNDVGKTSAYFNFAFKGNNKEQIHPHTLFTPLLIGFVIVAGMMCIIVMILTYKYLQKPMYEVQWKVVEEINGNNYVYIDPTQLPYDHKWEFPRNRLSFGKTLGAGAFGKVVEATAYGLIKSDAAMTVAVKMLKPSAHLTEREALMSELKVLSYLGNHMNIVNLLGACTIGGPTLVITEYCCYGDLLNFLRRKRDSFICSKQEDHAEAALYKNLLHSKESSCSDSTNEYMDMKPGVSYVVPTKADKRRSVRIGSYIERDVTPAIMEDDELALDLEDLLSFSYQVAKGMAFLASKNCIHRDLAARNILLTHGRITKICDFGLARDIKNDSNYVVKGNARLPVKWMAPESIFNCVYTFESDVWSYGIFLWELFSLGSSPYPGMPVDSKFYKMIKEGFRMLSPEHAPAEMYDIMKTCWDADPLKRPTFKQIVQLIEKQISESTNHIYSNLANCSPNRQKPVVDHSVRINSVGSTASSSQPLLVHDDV
Sequence of UniProt P57059 (whole entry, looked up): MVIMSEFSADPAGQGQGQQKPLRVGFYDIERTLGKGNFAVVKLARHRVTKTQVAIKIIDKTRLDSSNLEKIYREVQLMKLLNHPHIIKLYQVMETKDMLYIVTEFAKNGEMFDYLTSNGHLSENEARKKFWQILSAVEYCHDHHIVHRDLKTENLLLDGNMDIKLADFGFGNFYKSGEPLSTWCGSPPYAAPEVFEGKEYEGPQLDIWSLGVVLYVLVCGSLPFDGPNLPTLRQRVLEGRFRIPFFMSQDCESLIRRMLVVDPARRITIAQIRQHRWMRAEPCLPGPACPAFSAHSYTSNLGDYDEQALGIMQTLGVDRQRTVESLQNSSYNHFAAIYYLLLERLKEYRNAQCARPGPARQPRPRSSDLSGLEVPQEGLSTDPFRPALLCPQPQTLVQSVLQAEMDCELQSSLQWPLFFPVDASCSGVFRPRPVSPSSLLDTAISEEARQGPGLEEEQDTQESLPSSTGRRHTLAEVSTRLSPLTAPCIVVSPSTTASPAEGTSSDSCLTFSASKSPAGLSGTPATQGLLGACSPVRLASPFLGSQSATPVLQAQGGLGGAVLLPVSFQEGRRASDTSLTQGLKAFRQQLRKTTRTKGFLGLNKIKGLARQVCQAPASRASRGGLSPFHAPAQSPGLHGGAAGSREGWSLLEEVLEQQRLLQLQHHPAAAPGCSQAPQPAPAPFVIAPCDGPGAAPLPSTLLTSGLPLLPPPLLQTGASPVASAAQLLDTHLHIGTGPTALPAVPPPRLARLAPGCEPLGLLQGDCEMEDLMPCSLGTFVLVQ
Sequence of UniProt Q16566 (whole entry, looked up): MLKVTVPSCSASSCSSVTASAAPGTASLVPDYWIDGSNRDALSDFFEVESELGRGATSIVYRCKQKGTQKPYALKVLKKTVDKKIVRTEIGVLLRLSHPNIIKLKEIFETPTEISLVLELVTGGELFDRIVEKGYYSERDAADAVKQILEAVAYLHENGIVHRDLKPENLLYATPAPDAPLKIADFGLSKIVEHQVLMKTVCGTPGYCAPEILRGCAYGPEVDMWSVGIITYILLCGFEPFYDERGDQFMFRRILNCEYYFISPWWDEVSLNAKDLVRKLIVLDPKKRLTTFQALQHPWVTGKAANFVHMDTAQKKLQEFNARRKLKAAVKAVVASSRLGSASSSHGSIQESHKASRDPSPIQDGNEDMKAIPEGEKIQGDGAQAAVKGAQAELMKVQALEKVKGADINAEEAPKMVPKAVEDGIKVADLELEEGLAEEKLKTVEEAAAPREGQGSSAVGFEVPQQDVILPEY

Block 1 — tested at: 1 µM; endpoint: remaining binding
SMILES: N#CC1(c2ccccn2)CCN(Cc2cc(C(=O)O)c(=O)n3ccccc23)CC1
target = PIK3CA (Homo sapiens, UniProt P42336, H1047Y); effect on = cell-free assay; method = competition with immobilised ligand; value = 100%
target = KIT (Homo sapiens, UniProt P10721, A829P); effect on = cell-free assay; method = competition with immobilised ligand; value = 84%
target = OXSR1 (Homo sapiens, UniProt O95747); effect on = cell-free assay; method = competition with immobilised ligand; value = 79%
target = IRAK3 (Homo sapiens, UniProt Q9Y616); effect on = cell-free assay; method = competition with immobilised ligand; value = 100%
target = SNRK (Homo sapiens, UniProt Q9NRH2); effect on = cell-free assay; method = competition with immobilised ligand; value = 76%
target = FLT3 (Homo sapiens, UniProt P36888, K663Q); effect on = cell-free assay; method = competition with immobilised ligand; value = 100%
target = CDK11A (Homo sapiens, UniProt Q9UQ88); effect on = binding; method = competition with immobilised ligand; value = 100%
target = SIK1 (Homo sapiens, UniProt P57059); method = competition binding; value = 92%
target = CDK13 (Homo sapiens, UniProt Q14004); effect on = cell-free assay; method = competition with immobilised ligand; value = 98%
target = ERBB3 (Homo sapiens, UniProt P21860); effect on = cell-free assay; method = competition with immobilised ligand; value = 100%
target = CAMK4 (Homo sapiens, UniProt Q16566); effect on = cell-free assay; method = competition with immobilised ligand; value = 84%
target = CASK (Homo sapiens, UniProt O14936); effect on = cell-free assay; method = competition with immobilised ligand; value = 100%

Block 2 — effect on: peptide-MHC binding; molecule type: peptide; tested at: concentration not given; endpoint: binding
Target: HLA class I histocompatibility antigen, C alpha chain, allele C*04:01 (Homo sapiens, UniProt P10321)
Sequence = RQWGMGFLL; value = inactive
Sequence = LPAEVRAAF; value = inactive
Sequence = NTDEIPELI; value = inactive
Sequence = LEARVNLSV; value = inactive
Sequence = YMWECPDFF; value = active
Sequence = LPSSSSYSY; value = inactive

Block 3 — target: CCNA1, cyclin fold, Cln2 fusion (human); method: yeast growth competition, sequencing; medium: yeast; setting: weak parent motif; relative to: not given; direction: higher = stronger binding; endpoint: normalised enrichment score
Starting sequence: viral docking peptide; KGVKRKLFAEDSS; partner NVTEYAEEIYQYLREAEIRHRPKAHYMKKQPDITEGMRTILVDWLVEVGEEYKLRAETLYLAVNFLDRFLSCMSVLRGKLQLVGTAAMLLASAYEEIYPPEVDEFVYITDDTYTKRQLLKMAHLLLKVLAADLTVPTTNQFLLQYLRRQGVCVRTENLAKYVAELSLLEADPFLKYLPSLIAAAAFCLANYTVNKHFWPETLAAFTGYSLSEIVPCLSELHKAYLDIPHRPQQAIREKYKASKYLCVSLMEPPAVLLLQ
Substitution = E10H; value = 0.044
Substitution = S12K; value = 1.08
Substitution = K6W; value = -0.265
Substitution = K4F; value = -0.00547
Substitution = L7K; value = 0.371
Substitution = D11L; value = 0.356
Substitution = F8I; value = 0.377
Substitution = E10Q; value = 0.642

Mixed results
Compound = O=C1NC(=O)c2c1c1c3ccccc3n3c1c1c2c2ccccc2n1[C@H]1CC[C@@H]3O1; target = Receptor-type tyrosine-protein kinase FLT3 (FLT3, Homo sapiens, UniProt P36888); effect on = enzyme activity; mode = inhibitor; tested at = 0.5 µM; relative to = control; endpoint = remaining activity; value = 0.194%

Excerpt of the above (block 2):
Sequence = RQWGMGFLL; value = inactive
Sequence = LPAEVRAAF; value = inactive
Sequence = NTDEIPELI; value = inactive
